Measurements of several laboratories.
Parts stem from different laboratories: compare values within a part only. Values joined by “and” are separate records of one study, mostly repeats; a detail may differ.
Chain of UniProt P10721 (whole entry, unmodified, looked up): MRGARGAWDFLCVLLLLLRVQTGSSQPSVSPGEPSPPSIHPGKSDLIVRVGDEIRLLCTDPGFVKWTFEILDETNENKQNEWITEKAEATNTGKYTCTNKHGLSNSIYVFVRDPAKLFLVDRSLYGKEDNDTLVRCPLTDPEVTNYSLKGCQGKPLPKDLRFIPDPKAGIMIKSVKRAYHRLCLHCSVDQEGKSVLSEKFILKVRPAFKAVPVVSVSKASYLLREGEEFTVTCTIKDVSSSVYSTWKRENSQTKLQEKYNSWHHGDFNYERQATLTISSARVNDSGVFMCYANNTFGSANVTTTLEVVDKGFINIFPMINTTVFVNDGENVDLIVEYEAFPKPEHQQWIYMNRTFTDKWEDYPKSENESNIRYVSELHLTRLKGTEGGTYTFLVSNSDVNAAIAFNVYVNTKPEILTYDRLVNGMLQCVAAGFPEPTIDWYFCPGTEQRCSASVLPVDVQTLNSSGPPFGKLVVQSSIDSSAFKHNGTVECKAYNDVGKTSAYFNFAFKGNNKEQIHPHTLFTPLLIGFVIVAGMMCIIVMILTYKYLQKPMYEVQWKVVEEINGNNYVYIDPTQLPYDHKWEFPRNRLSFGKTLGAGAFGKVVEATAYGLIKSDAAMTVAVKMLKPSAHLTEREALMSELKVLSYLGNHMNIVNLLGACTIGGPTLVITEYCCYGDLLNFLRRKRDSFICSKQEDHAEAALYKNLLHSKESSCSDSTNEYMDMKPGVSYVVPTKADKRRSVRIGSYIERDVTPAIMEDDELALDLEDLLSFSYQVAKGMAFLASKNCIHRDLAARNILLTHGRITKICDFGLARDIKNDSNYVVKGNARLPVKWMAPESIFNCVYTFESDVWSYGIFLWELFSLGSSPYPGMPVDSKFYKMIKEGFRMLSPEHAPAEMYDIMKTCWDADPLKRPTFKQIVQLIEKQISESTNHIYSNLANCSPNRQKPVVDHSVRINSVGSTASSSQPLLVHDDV
Chain of UniProt Q02779 (whole entry, looked up): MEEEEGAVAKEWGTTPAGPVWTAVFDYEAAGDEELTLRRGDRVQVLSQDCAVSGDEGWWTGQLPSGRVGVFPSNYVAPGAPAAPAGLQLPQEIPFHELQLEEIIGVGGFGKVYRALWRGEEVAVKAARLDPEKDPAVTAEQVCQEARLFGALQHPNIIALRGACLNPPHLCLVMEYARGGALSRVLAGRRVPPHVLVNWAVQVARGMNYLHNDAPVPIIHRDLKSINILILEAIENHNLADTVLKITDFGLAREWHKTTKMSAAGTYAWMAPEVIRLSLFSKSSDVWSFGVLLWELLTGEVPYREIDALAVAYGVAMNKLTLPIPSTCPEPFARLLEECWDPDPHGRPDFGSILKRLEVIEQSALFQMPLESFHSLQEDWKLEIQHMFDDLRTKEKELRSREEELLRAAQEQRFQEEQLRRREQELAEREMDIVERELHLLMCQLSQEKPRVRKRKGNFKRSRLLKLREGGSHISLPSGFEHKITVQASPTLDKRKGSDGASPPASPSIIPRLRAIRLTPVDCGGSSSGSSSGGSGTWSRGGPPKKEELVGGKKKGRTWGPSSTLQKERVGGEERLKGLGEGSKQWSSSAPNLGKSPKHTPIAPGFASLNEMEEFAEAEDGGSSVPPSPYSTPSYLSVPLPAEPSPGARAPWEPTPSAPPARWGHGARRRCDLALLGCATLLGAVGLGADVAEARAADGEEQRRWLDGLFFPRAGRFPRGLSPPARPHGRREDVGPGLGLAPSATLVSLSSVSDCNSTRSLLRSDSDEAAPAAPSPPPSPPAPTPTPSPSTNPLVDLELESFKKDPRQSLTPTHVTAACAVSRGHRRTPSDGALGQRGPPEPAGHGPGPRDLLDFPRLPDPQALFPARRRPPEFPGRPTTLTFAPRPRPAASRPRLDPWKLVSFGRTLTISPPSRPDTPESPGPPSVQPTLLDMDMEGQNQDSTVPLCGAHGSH

Set 1
SMILES: Cc1nc(Nc2ncc(C(=O)Nc3c(C)cccc3Cl)s2)cc(N2CCN(CCO)CC2)n1
Mode: inhibitor
| target | tested at | inhibition [%] |
| --- | --- | --- |
| RIPK4 (Homo sapiens, UniProt P57078) | 10 µM | < 50 |
| ALK (Homo sapiens, UniProt Q9UM73) | 10 µM | < 50 |
| FES (Homo sapiens, UniProt P07332) | 10 µM | 68 |
| Aurora kinase C (AURKC, Homo sapiens, UniProt Q9UQB9) | 10 µM | 74 |
| IGF1R (Homo sapiens, UniProt P08069) | 1 µM | < 50 |

Set 2
Target: DNA polymerase theta, ATPase domain (POLQ, Homo sapiens, UniProt O75417)
Chain of UniProt O75417 (whole entry, unmodified, looked up): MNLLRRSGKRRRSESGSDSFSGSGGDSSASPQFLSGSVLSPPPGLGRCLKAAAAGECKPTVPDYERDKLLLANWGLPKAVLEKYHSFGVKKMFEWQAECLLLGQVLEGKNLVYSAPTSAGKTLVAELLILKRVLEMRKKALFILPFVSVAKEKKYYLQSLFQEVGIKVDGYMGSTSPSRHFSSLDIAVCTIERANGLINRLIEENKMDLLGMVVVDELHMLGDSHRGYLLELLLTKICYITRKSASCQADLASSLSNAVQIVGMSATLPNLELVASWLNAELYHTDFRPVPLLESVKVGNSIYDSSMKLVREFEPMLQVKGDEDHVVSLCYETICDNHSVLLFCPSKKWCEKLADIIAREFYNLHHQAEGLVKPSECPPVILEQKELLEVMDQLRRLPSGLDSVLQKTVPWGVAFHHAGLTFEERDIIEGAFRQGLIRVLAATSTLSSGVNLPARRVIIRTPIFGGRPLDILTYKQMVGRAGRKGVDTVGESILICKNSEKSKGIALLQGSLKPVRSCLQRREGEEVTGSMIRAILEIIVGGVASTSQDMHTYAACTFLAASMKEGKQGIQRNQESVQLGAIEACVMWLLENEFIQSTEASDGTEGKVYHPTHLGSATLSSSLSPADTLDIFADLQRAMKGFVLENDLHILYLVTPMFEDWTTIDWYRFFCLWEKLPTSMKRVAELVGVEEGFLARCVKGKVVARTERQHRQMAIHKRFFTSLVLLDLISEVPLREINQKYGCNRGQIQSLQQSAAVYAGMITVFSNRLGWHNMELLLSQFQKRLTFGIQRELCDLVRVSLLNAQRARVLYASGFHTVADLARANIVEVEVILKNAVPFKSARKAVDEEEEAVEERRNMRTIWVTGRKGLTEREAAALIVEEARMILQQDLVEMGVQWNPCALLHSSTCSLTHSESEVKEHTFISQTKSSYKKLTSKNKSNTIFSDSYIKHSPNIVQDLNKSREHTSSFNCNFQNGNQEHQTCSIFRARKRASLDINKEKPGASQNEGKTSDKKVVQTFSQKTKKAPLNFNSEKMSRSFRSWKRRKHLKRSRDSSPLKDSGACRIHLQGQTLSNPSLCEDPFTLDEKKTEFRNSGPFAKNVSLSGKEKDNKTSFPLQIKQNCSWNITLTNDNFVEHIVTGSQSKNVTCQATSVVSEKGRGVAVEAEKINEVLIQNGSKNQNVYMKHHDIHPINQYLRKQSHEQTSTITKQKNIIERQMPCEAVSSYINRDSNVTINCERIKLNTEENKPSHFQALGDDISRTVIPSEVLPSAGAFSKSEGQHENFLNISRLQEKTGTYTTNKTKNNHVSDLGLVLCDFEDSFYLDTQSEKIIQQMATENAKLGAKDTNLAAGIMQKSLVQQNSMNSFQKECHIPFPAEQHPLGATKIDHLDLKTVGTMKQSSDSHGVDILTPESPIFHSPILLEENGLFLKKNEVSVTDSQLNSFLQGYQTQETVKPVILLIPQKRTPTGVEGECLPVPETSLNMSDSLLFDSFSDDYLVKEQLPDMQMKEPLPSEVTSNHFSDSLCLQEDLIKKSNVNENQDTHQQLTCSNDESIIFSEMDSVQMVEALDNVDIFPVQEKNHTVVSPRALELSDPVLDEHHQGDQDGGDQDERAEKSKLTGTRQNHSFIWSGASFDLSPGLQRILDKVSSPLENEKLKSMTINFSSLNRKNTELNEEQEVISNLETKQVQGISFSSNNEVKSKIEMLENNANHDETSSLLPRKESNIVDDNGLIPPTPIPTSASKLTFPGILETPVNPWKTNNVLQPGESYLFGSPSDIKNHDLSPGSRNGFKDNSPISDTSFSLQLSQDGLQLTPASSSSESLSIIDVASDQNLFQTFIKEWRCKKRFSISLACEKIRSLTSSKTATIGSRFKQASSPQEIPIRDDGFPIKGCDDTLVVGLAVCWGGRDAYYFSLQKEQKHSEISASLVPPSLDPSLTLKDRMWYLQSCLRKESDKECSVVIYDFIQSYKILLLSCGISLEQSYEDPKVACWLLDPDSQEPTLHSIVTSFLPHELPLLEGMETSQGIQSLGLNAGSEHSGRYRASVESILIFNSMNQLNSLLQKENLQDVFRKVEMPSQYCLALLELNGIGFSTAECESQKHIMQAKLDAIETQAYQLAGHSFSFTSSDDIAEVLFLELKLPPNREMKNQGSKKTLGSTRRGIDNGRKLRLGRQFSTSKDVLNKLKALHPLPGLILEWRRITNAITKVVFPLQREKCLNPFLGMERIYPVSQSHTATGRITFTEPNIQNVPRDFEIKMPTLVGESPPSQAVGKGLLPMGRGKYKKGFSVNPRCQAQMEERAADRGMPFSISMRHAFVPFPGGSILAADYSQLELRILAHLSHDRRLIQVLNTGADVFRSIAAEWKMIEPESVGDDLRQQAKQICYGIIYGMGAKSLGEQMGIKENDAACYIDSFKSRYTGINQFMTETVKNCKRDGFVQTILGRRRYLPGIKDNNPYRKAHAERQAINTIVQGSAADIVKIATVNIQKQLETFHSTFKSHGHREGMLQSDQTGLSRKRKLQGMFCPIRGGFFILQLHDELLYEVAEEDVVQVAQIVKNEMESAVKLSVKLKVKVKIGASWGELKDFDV
Read-out: enzyme activity
Mode: inhibitor
Tested at: 77 µM
Relative to: untreated
| SMILES | remaining activity |
| --- | --- |
| Cc1c(Cl)cccc1Nc1ccccc1C(=O)O | 92.6% and 92.8% |
| CC1(C)S[C@@H]2[C@H](NC(=O)[C@H](NC(=O)N3CCNC3=O)c3ccccc3)C(=O)N2[C@H]1C(=O)O | 99% and 96.6% |
| NS(=O)(=O)c1ccc(N=Nc2c(O)[nH]c3ccc(Br)cc23)cc1 | 102% |
| O=C(Nc1ccccc1)N1CCN(c2nc(-c3ccccc3)ns2)CC1 | 100% |
| O=C(NCc1ccccc1)c1csc(Nc2ccncn2)n1 | 97.4% |

Set 3
Species: mouse
Sample: microsomes or S9
Tested at: 2 µM
Time: 0.5 h
| Structure (SMILES) | remaining compound [%] |
| --- | --- |
| Cc1ccc(-c2noc(CCC(=O)N(C)C)n2)c(=O)n1C(C)C | 0.179 |
| Brc1ccc(C2CC(c3ccc(Br)cc3)n3ncnc3N2)cc1 (stereo not drawn) | 42.6 |
| CN(C)CCCOc1ccc(CN2CCC(NC(=O)c3ccco3)CC2)cc1 | 50.9 |
| CC(=O)N1N=C(Cn2nc(C)cc2C)OC1c1ccccc1OCc1cccc(Br)c1 (stereo not drawn) | 56.8 |
| COc1cc(=O)n(C)cc1C(=O)NC(c1cccnc1)C1CCOCC1 (stereo not drawn) | 84.5 |
| N=c1n(CCN2CCCCC2)c2ccccc2n1CC(O)c1ccccc1 (stereo not drawn) | 25.7 |
| CN1CCC(=C2c3ccccc3CCc3sccc32)CC1 | 11.9 |
| CC1CCN(CCCNc2ncc(-c3cnccn3)c(-c3ccco3)n2)CC1 | 0.732 |

Set 4
Cell line: A-375
Tested at: 100 µM
Time: 36 h
| SMILES | viability [%] |
| --- | --- |
| CO/N=C(\C(=O)N[C@@H]1C(=O)N2C(C(=O)O)=C(C[N+]3(C)CCCC3)CS[C@H]12)c1csc(N)n1 | 116 |
| Nc1ccn([C@@H]2CS[C@H](CO)O2)c(=O)n1 | 108 |
| Oc1ncnc2[nH]ncc12 | 121 |
| COc1cc2ccc(=O)oc2c(O)c1O | 98.7 |
| CCN(CC)C(=O)c1ccc(O)c(OC)c1 | 121 |
| Cc1ccc(Nc2nccc(N(C)c3ccc4c(C)n(C)nc4c3)n2)cc1S(N)(=O)=O | 45.2 |

Set 5
Compound: CS(=O)(=O)c1cc(C2(NC(=O)c3cncc4c3cnn4-c3ccc(F)cc3)CC2)ccn1
Method: competition with immobilised ligand
Tested at: 1 µM
| target | read-out | remaining binding [%] |
| --- | --- | --- |
| PRKCI (Homo sapiens, UniProt P41743) | cell-free assay | 100 |
| STK35 (Homo sapiens, UniProt Q8TDR2) | cell-free assay | 100 |
| KDR (Homo sapiens, UniProt P35968) | cell-free assay | 77 |
| CSNK1G1 (Homo sapiens, UniProt Q9HCP0) | cell-free assay | 100 |
| CSF1R (Homo sapiens, UniProt P07333) | cell-free assay | 79 |
| MAP3K20 (Homo sapiens, UniProt Q9NYL2) | cell-free assay | 86 |
| MARK3 (Homo sapiens, UniProt P27448) | cell-free assay | 100 |
| MAPK7 (Homo sapiens, UniProt Q13164) | cell-free assay | 75 |
| KIT (Homo sapiens, UniProt P10721, T670I/V559D) | cell-free assay | 84 |
| MAP3K15 (Homo sapiens, UniProt Q6ZN16) | cell-free assay | 67 |
| NUAK1 (Homo sapiens, UniProt O60285) | cell-free assay | 91 |
| STK3 (Homo sapiens, UniProt Q13188) | cell-free assay | 100 |
| CLK2 (Homo sapiens, UniProt P49760) | cell-free assay | 100 |
| PIP5K1C (Homo sapiens, UniProt O60331) | cell-free assay | 95 |
| KIT (Homo sapiens, UniProt P10721) | cell-free assay | 96 |
| Tyrosine-protein kinase JAK1, JH2 (JAK1, Homo sapiens, UniProt P23458) | cell-free assay | 83 |
| ACVR2A (Homo sapiens, UniProt P27037) | cell-free assay | 98 |
| CHEK1 (Homo sapiens, UniProt O14757) | cell-free assay | 100 |
| MAP3K10 (Homo sapiens, UniProt Q02779) | cell-free assay | 99 |
| Tyrosine-protein kinase ABL1, non-phosphorylated (ABL1, Homo sapiens, UniProt P00519, F317I) | binding | 98 |
| NEK11 (Homo sapiens, UniProt Q8NG66) | cell-free assay | 100 |
| MAP2K1 (Homo sapiens, UniProt Q02750) | cell-free assay | 81 |
| TLK2 (Homo sapiens, UniProt Q86UE8) | cell-free assay | 100 |
| FLT4 (Homo sapiens, UniProt P35916) | cell-free assay | 100 |
| PRKX (Homo sapiens, UniProt P51817) | cell-free assay | 85 |

Set 6
Target: Calcium/calmodulin-dependent protein kinase type II subunit alpha (CAMK2A, Homo sapiens, UniProt Q9UQM7)
Chain of UniProt Q9UQM7 (whole entry, looked up): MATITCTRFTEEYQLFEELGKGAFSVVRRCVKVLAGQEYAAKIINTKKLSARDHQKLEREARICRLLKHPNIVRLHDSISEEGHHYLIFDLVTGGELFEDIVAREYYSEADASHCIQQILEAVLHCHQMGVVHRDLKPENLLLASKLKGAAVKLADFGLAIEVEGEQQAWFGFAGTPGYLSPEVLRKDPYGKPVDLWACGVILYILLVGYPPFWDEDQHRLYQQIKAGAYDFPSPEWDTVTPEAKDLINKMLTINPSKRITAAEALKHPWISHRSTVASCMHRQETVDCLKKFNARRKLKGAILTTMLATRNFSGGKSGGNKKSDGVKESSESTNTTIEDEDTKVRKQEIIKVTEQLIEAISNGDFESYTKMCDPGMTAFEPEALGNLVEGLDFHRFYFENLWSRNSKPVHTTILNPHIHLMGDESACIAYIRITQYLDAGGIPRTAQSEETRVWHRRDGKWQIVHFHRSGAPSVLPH
Read-out: enzyme activity
Mode: inhibitor
Tested at: 10 µM
| Structure (SMILES) | inhibition |
| --- | --- |
| CCN(CC)CCOC(=O)C(Cc1cccc2ccccc12)CC1CCCO1 (stereo not drawn) | -2% |
| CC(=O)Nc1cccc(-n2c(=O)n(C3CC3)c(=O)c3c(Nc4ccc(I)cc4F)n(C)c(=O)c(C)c32)c1 | 0.01% and -0.12% |
| C=CC(C)(O)CCC=C(C)C (stereo not drawn) | -23% |
| O=C(O)C=Cc1ccc(O)cc1 | -22% |
| C=CC1CNC(=S)O1 (racemic) | -16% |
